Measurements of several laboratories.
Parts stem from different laboratories: compare values within a part only.

Block 1 — method: protein binding microarray; molecule type: double-stranded DNA, one strand shown; sample: in vitro; concentration: not given; reference: not given; direction: higher = stronger binding
Target: Histone acetyltransferase KAT6A, winged helix 2, GST fusion (KAT6A, Homo sapiens, UniProt Q92794, residues 85-181)
Setting: 8-mer, flanks averaged, mean of 2 arrays, mostly near background
Construct (chain): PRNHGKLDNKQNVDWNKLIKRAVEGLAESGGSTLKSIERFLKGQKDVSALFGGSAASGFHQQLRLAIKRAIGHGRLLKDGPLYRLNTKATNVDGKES
| Sequence | E-score |
| --- | --- |
| CATTTCGC | -0.148 |
| CGACATTA | -0.0867 |
| AACATTGA | -0.0278 |
| CTATGGTA | -0.137 |
| GTGAGAAC | 0.0402 |

Block 2 — method: RNAcompete; molecule type: RNA; sample: in vitro; concentration: 20 nM; setting: 7-mer, probes averaged, single round; reference: mean of 7-mers; direction: higher = stronger binding
Target: PABPC1L2, full length, GST fusion (mouse, UniProt A0ABA7IW68)
Construct (chain): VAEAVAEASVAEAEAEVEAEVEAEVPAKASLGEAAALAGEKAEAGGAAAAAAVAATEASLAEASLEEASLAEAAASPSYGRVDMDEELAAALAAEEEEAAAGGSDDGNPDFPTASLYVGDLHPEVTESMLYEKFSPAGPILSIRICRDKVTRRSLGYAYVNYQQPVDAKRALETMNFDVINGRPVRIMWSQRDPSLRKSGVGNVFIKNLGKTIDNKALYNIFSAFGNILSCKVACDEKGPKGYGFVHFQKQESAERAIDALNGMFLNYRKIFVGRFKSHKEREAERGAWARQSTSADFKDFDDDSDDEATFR
| Sequence | 7-mer Z-score |
| --- | --- |
| AUCAUUC | -0.248 |
| AAAGUAU | 1.17 |
| ACAUCAG | -0.112 |
| CAAUAAG | 0.0605 |
| AUCCAAA | 0.613 |
| GCCUCUC | -0.387 |

Block 3 — method: protein-binding microarray; molecule type: double-stranded DNA, one strand shown; sample: in vitro; concentration: not given; direction: higher = stronger binding
Target: Protein C-ets-1 (ETS1, Homo sapiens, UniProt P14921, residues 1-441, Y397A, full length assumed)
Setting: k-mer, scored over probes, only values ≥0.25
Construct (chain): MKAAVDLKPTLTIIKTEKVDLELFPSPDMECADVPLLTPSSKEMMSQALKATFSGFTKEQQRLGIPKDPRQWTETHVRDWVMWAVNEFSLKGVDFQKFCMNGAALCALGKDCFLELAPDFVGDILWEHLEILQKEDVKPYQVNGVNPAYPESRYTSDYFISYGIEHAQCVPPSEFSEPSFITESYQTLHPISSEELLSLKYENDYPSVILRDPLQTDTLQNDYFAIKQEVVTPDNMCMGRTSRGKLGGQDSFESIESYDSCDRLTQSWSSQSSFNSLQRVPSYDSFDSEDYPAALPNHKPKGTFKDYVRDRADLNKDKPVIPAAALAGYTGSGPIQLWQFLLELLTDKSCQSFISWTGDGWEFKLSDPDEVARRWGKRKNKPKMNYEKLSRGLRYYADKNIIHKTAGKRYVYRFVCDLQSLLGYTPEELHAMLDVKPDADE
| Sequence | E-score |
| --- | --- |
| CGGCGGAA | 0.257 |
| CCCGGAAG | 0.314 |
| CGACAACC | 0.282 |
| AACGACAT | 0.289 |
| CACATTGC | 0.256 |

Block 4 — method: Sort-seq; measured: YFP reporter; sample: E. coli; setting: PhoQ-PhoP variant library; together with: 10 µM Mg2+; reference: high Mg2+ state; direction: higher = stronger signaling
Substance: PhoQ, residues 284 288 289 292 302 303 SMMNNA
| target | fold induction |
| --- | --- |
| PhoP, residues 12 14 15 18 19 SHWTV (Escherichia coli, UniProt P23836) | 1.28 |
| PhoP, residues 12 14 15 18 19 QYCSL (Escherichia coli, UniProt P23836) | 7.81 |
| PhoP, residues 12 14 15 18 19 STHWV (Escherichia coli, UniProt P23836) | 0.609 |

A few entries again (block 1):
| Sequence | E-score |
| --- | --- |
| GTGAGAAC | 0.0402 |
